Results collected from several papers.
Protocols differ between the studies behind these lines. ± gives the spread as reported.

SMILES	assay	test system	setting	scale	endpoint	result
Cc1cc(C)n(CCN(CCN)CCCCCCNC(=O)[C@@H](N)Cc2c[nH]cn2)n1.[99Tc+].[C-]#[O+].[C-]#[O+].[C-]#[O+]	–	BALB/c nude mice A549 xenograft	intravenous, 24 h	baseline: tumour over lung	tumour-to-tissue ratio	2
C=CC(=O)Nc1cc(Nc2nccc(-c3cn(C)c4ccccc34)n2)c(OC)cc1N(C)CCNC	storage stability	human plasma	270 ng/mL, 5 h, on ice, HQC level	–	remaining amount	92.3%
CC(C)[C@H](NC(=O)[C@H](Cc1c[nH]c2ccccc12)NC(=O)[C@H](CCCNC(=N)N)NC(=O)[C@H](CCCNC(=N)N)NC(=O)[C@@H](NC(=O)[C@@H](NC(=O)[C@H](CCCNC(=N)N)NC(=O)[C@@H](NC(=O)[C@@H](NC(=O)[C@H](CCCNC(=N)N)NC(=O)[C@H](CCCNC(=N)N)NC(=O)[C@@H](NC(=O)[C@H](Cc1c[nH]c2ccccc12)NC(=O)[C@H](CCCNC(=N)N)NC(=O)[C@H](CCCNC(=N)N)NC(=O)[C@@H](NC(=O)[C@H](CCCNC(=N)N)NC(=O)[C@H](CCCNC(=N)N)NC(=O)[C@@H](NC(=O)[C@H](Cc1c[nH]c2ccccc12)NC(=O)[C@H](CCCNC(=N)N)NC(=O)[C@@H](N)CCCNC(=N)N)C(C)C)C(C)C)C(C)C)C(C)C)C(C)C)C(C)C)C(C)C)C(=O)N[C@@H](CCCNC(=N)N)C(=O)N[C@@H](CCCNC(=N)N)C(=O)O	dipstick	CD1 mouse, urine	intravenous, 15 mg/kg, 6 h, [14C]-labelled compound	–	urine pH	5.5
COCC1CN(C2CCN(c3cc(OC)c(Nc4ncc(Br)c(Nc5ccc6c(c5P(C)(C)=O)OCCO6)n4)cc3C)CC2)C1	–	human, plasma	oral, 150 mg, multiple doses, patients	–	AUC	20800 ng·h/mL
Cc1noc(C)c1Cn1cc(N2C(=O)CN(Cc3cccc(O[C@@H]4O[C@H](C(=O)O)[C@@H](O)[C@H](O)[C@H]4O)c3)C2=O)cn1	–	rat Sprague-Dawley male, plasma	intravenous, 1 mg/kg of parent drug, 0.25 h	–	plasma concentration	144 ng/mL
Cc1n[nH]c(C)c1CCCOc1cc(C(=O)NCCCCC(NC(=O)CN2CCN(CC(=O)[O-])CCN(CC(=O)[O-])CCN(CC(=O)[O-])CC2)C(=O)NCC2CCC(C(=O)NC(Cc3ccc4ccccc4c3)C(=O)NCCCCC(NC(=O)NC(CCC(=O)O)C(=O)O)C(=O)O)CC2)ccc1F.[68Ga+3] (centres unmarked)	–	BALB/c mouse, blood	intravenous	–	distribution half-life	1.12 min
NS(=O)(=O)c1c(F)c(F)c(S(=O)(=O)CCO)c(F)c1F	–	–	sulfonamide group	–	pKa	7.28
[123I]c1ccc2nc(-c3ccc(-n4ccnn4)nc3)cn2c1	–	male Wistar rat, bone	intravenous, 4 MBq, 30 min	–	tracer uptake	0.126 %ID/g
O=C([O-])CN1CCN(CC(=O)[O-])CCN(CC(CCCc2ccccc2[N+](=O)[O-])N(CC(=O)[O-])CC(=O)[O-])CC1.[177Lu+3] (centres unmarked)	TLC	human serum	327 h, pH 7, 37 °C	–	intact radiolabelled complex	99.8 ± 0.3%
C[N+](C)(CCOCCOCCOCCNC(=S)Nc1ccc(C[C@H]2CN(CC(=O)[O-])CCN(CC(=O)[O-])CCN2CC(=O)[O-])cc1)C[c-]1cccc1.[64Cu+2].[Fe+2].c1cc[cH-]c1	pretargeted PET	nude mouse, BxPC-3 xenograft	8 h post-radioligand, 216 h lag time	–	tumour uptake	2.6 ± 0.2 %ID/mL
CC[C@H](C)/C=C/C=C/C=C/C(O)=C/C(=O)C(Cl)(Cl)Cl	UPLC-MS	PBS with DMSO	100 µM, 1 h, pH 7.4, room temperature, 1% DMSO	–	hydrate fraction	2.2 ± 0.1%
O=C(Nc1cnccc1-c1ccc([18F])cc1)c1ccnc(NC(=O)C2CC2)c1	ex vivo gamma counting	FVB/NJ mice, both sexes, heart	intravenous, 120 min, mean, P-gp inhibitor pretreatment, together with: tariquidar 15 mg/kg iv	–	SUV	0.34
CN1CCC[C@]1(C)/C=C/S(=O)(=O)NC(=O)Nc1c2c(cc3c1C(O)CC3)CCC2 (some centres unmarked)	–	human, plasma	oral, 12.5 mg twice daily of parent drug, day 14, metabolite of dosed drug	–	Tmax at second steady-state dose	210 min
CC(=O)NCC(=O)N[C@@H](Cc1ccccc1)C(=O)N[C@@H](Cc1ccccc1)C(=O)N[C@@H](Cc1ccc(O)cc1)C(=O)NCC(=O)N[C@@H](Cc1ccc(O)cc1)C(=O)NCC(=O)N[C@@H](CO)C(=O)N[C@@H](CO)C(=O)N[C@@H](CO)C(=O)N[C@@H](CCCNC(=N)N)C(=O)N[C@@H](CCCNC(=N)N)C(=O)N[C@@H](C)C(=O)N1CCC[C@H]1C(=O)N[C@@H](CCC(N)=O)C(=O)N[C@H](C(=O)O)[C@@H](C)O	TEM	PBS	1.0 wt%, heating-cooling	–	nanosphere diameter	44.8 ± 10.9 nm
Cc1cccc(Cn2ncc3c4cc(F)c(CN(C)C)cc4n(C)c3c2=O)n1	–	Dutch-belted rabbit, plasma	intravitreal, 1 µM vitreous, 2.00 days	–	plasma concentration	not detected
CC[C@H](C)[C@@H]1NC(=O)[C@H](Cc2ccc(O)cc2)NC(=O)CCCSC[C@@H](C(=O)N(CC(=O)N[C@@H](CC(C)C)C(=O)NCC(N)=O)Cc2ccc(F)cc2)NC(=O)[C@H](CC(N)=O)NC(=O)[C@H](CCC(N)=O)NC1=O	–	human, plasma	intranasal, 50 µg single	–	tmax	10.2 min
CC(C)(O)c1ncc([S@](N)(=O)=NC(=O)Nc2c3c(cc4c2CCC4)CCC3)s1	item: musculoskeletal, connective tissue	healthy human	oral, 30 mg, 14 days, CS formulation, once daily	–	subjects with TEAEs	33%
C/C(N)=N/C(=N\S(=O)(=O)c1ccc(C(F)(F)F)cc1)N1C[C@H](c2ccccc2)C(c2ccc(Cl)cc2)=N1	–	C57BL/6 mouse, lung	intravenous, 10 mg/kg	–	Tmax	6 min
CCNCC#CCNc1ccnc2cc(Cl)ccc12	item: compound as metabolite	human hepatocytes	10 µM DAQ, 30 min	higher = more metabolite formed	MS peak area	3e+06 a.u.
C=C(NC(=O)c1csc(-c2nc3c(cc2O)-c2nc(cs2)C(=O)NC(C(C)O)C(=O)NC(=C(C)OC)c2nc(cs2)C(=O)NC2c4nc(cs4)C(=O)NC(COC(=O)c4c5c6c(cccc6n4O)COC(=O)C(OC4CC(C)(O)C(N(C)C)C(C)O4)C2OC5)c2nc-3cs2)n1)C(N)=O (centres unmarked)	–	cynomolgus monkey, both sexes, plasma	intravenous infusion, 1.5 mg/kg twice daily, 0 to 6 h, first dose	–	Tmax	10.2 ± 10.2 min

For quick reference, copied from above:
SMILES	assay	test system	setting	scale	endpoint	result
Cc1cccc(Cn2ncc3c4cc(F)c(CN(C)C)cc4n(C)c3c2=O)n1	–	Dutch-belted rabbit, plasma	intravitreal, 1 µM vitreous, 2.00 days	–	plasma concentration	not detected
